# Measured values of several laboratories.
# Parts stem from different laboratories: compare values within a part only.

# Block 1 — method: RNA Bind-n-Seq; form: RNA; medium: in vitro; tested at: 365 nM; relative to: no-protein control; reading: higher = stronger binding
# Target: RNA binding protein fox-1 homolog 2, RRM domain, GST-SBP tag (RBFOX2, Homo sapiens, UniProt O43251-10, residues 100-194)
# Setting: natural RNA segment, single round, ends assumed
# Construct (chain): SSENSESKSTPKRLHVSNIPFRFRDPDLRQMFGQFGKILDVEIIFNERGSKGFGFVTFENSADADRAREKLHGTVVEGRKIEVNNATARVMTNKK
Oligonucleotide,RBNS enrichment (R)
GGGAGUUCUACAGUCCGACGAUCGCCCGCCCUGGUUUGCCUGCGGUUUAAUAUGCAAUAUUCAGCAGACAGCUGCUGGCGCUACAAUUAGUGAGGCGAAAAUAACCACGAUCCACAUUACCAUCAAGCCCUUGUGGAAUUCUCGGGUGCCAA,0.246
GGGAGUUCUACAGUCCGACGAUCGGGGGUCCACCCGCCUCCAUCUGGAUACUACAACCUCCCUCCUUCCUAAGUUUUGAGGUGGGGUGAUGGCCCUCUACUUCCCUGUUUAUAGUCUAACUCACCUAUUAACCUGGAAUUCUCGGGUGCCAA,0.512
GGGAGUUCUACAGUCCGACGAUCCUGGGUAUUUUUGUUUUUGUUUAGUUUUAGGUUUACAACAGAGAGGAAUUAAUUUAUCAGCAGCCUAAAACUGUUGUGUUUUUCUUAUGGUUUAAAAAACGCCAUGUCAUUGGAAUUCUCGGGUGCCAA,1.19
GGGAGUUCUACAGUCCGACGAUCGAACUCAUGGAUGCAGACUCGGACUUCUGGCCUGCAGAGCAGGACCUGGGACAGGAAAGAGAGGAACCAAUACCUUCAAGGCUCUUCUUCCUCACCGAGCAUGCUUCCCUUGGAAUUCUCGGGUGCCAA,5.27
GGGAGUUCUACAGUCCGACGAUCGUACAAAUGUGUUACACAUAAAUGUUUUCCUUCCUGGGGGUCUGUGUUGGAUGUUGUGGGCCUGGAGUCAAUAGGAACAUACAAUGUGUGUAGUGUCCGCUAAGGUUGCAUGGAAUUCUCGGGUGCCAA,20.3
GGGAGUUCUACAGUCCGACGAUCGGGCUUUAACCCUGUACAACGUCACCGAGAGCAACGCCUCCUACUUGGAUCCUGGAGCCAGUCCCUCCUCUCCCUGAGAUCUGCAUCCCUCUGAAAAAGCCUGGCUAAGGUGGAAUUCUCGGGUGCCAA,0.56
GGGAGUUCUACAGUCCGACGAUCCUGAAGGAUGGGCAACUGAUCACAUUAUUACUUAAUAGUUUUUUUUUUUCUUGCAGUGUGUGUGUGUGCUAUACCUUAAUGGGGAAGGGGGGGUCGAUAUGCAUUAUAUGUGGAAUUCUCGGGUGCCAA,3.36
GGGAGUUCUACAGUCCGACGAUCUUUGAGGCGAAGGCGUCUGUCUCUUGGCUAUUUUAACCUAAAAUAACAGUCUAGUUAUAUUCCCUCUUCUUGCAAAGCACAAGCUGGGACCGCGAGCACAUUGCAGCCCCUGGAAUUCUCGGGUGCCAA,0.587
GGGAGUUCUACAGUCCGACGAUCGUCACAUUCCCUGUGUUCAGAGCCUGGAAAUGAAAUUGAGUUCAGUUCAGCCUCUCUGUAAUGAAUCAAGAAAUGUAAAAGAGCUUUGAGACCCCAAGGGAAAGGAGAGAUGGAAUUCUCGGGUGCCAA,0.751
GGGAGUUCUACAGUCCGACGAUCACAAUCAGAACCAGGUACAAGCCAGUAAAGCGGCAGAUGACUGCCACUCAGCCCACAUACGGCAUUCUUCCCAUCCCACAGUCUUAGAGCCAGAUGAGGCUAACAAGACCUGGAAUUCUCGGGUGCCAA,0.314
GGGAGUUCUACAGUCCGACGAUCCUCAAGCAGUGUGCUGGACCUAAAAUACUGACUUUAGUUAGUAUCCUUGGAUUUUUAGAUUCCCAGUGUCUAAUUCCCUGUUAUAAUUUGCACAAACAAAACAAAAUGUUUGGAAUUCUCGGGUGCCAA,0.524
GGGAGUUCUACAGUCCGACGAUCUUUUUUCCCAUAACACCCACAUGGAUUUGUGAAGACGUGCUUCUCAGAAGCAAGGACUCAAAAAGCAAAGGUGCACGGCGAGGCCACGAAGCCCACGCCAGCCCGGGGAUUGGAAUUCUCGGGUGCCAA,0.249

# Block 2 — method: competition protein-binding microarray; form: double-stranded DNA, one strand shown; medium: in vitro; tested at: 2 µM; with: Pho4 competitor, 0.05 µM; reading: higher = stronger binding
# Target: Centromere-binding protein 1, full length, His-tagged (CBF1, Saccharomyces cerevisiae, UniProt P17106, residues 1-351)
# Sequence of UniProt P17106 (whole entry, looked up): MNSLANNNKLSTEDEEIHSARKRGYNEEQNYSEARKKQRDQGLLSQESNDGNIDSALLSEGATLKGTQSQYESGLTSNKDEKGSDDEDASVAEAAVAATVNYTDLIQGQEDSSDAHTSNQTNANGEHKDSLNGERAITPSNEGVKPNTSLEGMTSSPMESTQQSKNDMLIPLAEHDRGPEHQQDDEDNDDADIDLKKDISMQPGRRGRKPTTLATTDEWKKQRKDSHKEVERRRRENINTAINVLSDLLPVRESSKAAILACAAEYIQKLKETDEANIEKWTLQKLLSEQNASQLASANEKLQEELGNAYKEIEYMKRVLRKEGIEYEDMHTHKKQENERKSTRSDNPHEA
# Setting: whole 60-bp probe, lowest competitor level
Oligonucleotide,fluorescence intensity [a.u.]
CACCACCTTGCAGGTCCCGTGTAGGTAGGAGTCGCAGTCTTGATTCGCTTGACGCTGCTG,169
CTAACGAAGGTTTGAGAAGTGGGTGACAAGCCAAGTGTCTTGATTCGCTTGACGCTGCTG,65.7
CACAGTGTTCCGAGTCACGTGCTGTTTCAGTCCTCCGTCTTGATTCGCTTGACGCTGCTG,12500
CAAAGTGAACCTGGACACGTTCTTGCCAGTGCTTTCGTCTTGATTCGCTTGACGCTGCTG,91.3
CACGATTGCTATCGCAGTAATAGCCTAACCTCCATCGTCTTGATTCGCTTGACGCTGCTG,62.4
GTCTTGTCTCATTCTCACGTGTTTTTCCCCACTTCAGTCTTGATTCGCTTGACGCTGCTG,1230
GTCTTGTCTCATTGCGTAGTGGGTGTCCCCACTTCAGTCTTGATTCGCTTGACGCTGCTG,70.8

# Block 3 — method: protein-binding microarray; form: double-stranded DNA, one strand shown; medium: in vitro; tested at: 250 nM; setting: 60-bp whole probe; with: salmon DNA 0.4 mg/ml; relative to: random background probes; reading: higher = stronger binding; all sequences stand within: GCCTAGCAC … GTCTTGATTCGCTTGACGCTGCTG
# Target: Interferon regulatory factor 5, full length, phosphomimetic (IRF5, Homo sapiens, UniProt Q13568-2, residues 1-514, K96S/S451D/S453D/S456D/S462D)
Oligonucleotide,log fluorescence [z-score]
TTAGAACTGGGGACTGGATAAGTGCTA,-0.222
GACGGTTCCGTTTTCGGGACGTGCTAG,1.95
AGATTCCTCTCACCTCGGCCTGTGCTA,-0.0398
GACGGCATCGGTATCGGGACGTGCTAG,0.792
TTAGATATCGGGACGGGATTAGTGCTA,1.21
GACGGACTGCTTTTCCTGAAGTGCTAG,-0.264
TCAGTTCTCAGACTGGGACTGTGCTAG,-0.501
TCAGGTATCGGACTGGGTTAGTGCTAG,1.1
TTAGATTTCCGGTATCGATTAGTGCTA,6.08
CTCTCCATGTGTTTAAAAAGGTGCTAG,0.218
TCAGTTTTCTCTATTGCACTGTGCTAG,1.82

# Other studies, line by line
Substance,target,assay,system,conditions,scale,endpoint,value
"PhoQ, residues 284 288 289 292 302 303 AGHLVA","PhoP, residues 12 14 15 18 19 IQFRS (Escherichia coli, UniProt P23836)","Sort-seq, refers to: YFP reporter",E. coli,"PhoQ-PhoP variant library, with: 10 µM Mg2+","relative to: high Mg2+ state, higher = stronger signaling",fold induction,13.7

# Some of these lines once more (block 2):
Oligonucleotide,fluorescence intensity [a.u.]
CACGATTGCTATCGCAGTAATAGCCTAACCTCCATCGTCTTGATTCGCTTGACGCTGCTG,62.4
CACCACCTTGCAGGTCCCGTGTAGGTAGGAGTCGCAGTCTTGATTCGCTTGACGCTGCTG,169
GTCTTGTCTCATTGCGTAGTGGGTGTCCCCACTTCAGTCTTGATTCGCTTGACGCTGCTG,70.8
